Assay results collected from several papers.
Each numbered part is a random draw from the data of one study; scales do not carry over between parts.

Series 1
Target: Myc proto-oncogene protein, bHLH-zipper, MAX partner unstated (MYC, Homo sapiens, UniProt P01106, residues 368-449)
Chain of UniProt P01106 (368-449, looked up): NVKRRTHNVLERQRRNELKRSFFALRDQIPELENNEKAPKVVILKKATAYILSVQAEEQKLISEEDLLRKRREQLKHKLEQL
Technique: protein-binding microarray
Molecule type: double-stranded DNA, one strand shown
Matrix: in vitro
Tested at: not given
Setting: k-mer, scored over probes, only values ≥0.25
Direction: higher = stronger binding
Measurement: E-score
GTGACCAC: 0.352
ATGACACG: 0.373
AGGCACGA: 0.268
GGCGGGCA: 0.264

Series 2
Target: Prothrombin, mature alpha-thrombin (F2, Homo sapiens, UniProt P00734)
Technique: aptamer microarray, sandwich
Molecule type: DNA with 2'F-ANA
Matrix: in vitro
Tested at: 200 nM
Setting: whole 15-mer aptamer, many near background
With: Cy3 exosite-II aptamer, 400 nM
Direction: higher = stronger binding
Measurement: mean fluorescence intensity
GGTTGGTGTGGTTGG (2'F-ANA at 2 3 5 6 7 8 9 11): 91.5 a.u.
GGTTGGTGTGGTTGG (2'F-ANA at 4 6 7 8 10 13 14 15): 57.7 a.u.
GGTTGGTGTGGTTGG (2'F-ANA at 1 3 7 8 11 12): 579 a.u.
GGTTGGTGTGGTTGG (2'F-ANA at 1 2 6 8 9 10 11 13 14 15): 94.7 a.u.

Series 3
Target: Interferon regulatory factor 3, full length, phosphomimetic (IRF3, Homo sapiens, UniProt Q14653, residues 1-427, S386D/S396D/S398D/S402D/T404D/S405D)
Technique: protein-binding microarray
Molecule type: double-stranded DNA, one strand shown
Matrix: in vitro
Tested at: 2540 nM top
Setting: 60-bp whole probe
With: salmon DNA 0.4 mg/ml
Relative to: random background probes
Direction: higher = stronger binding
Measurement: fitted relative affinity
All sequences stand within: GCCTAGCAC … GTCTTGATTCGCTTGACGCTGCTG
Construct (chain): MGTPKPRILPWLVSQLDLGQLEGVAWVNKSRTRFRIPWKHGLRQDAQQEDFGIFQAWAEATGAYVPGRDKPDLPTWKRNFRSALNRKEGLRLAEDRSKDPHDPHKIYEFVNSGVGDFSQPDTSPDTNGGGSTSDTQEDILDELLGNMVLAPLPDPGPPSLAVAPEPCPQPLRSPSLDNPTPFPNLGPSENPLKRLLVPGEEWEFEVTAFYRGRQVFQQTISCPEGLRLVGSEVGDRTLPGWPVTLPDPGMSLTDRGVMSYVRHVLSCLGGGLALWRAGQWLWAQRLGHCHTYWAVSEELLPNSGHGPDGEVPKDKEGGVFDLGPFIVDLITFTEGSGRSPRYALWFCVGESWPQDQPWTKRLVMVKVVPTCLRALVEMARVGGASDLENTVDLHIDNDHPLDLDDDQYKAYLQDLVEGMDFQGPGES
TTAGAACTGAGGCTCGATTAGTGCTAG: -0.804 z-score
GACGGTATCGGGATTGGGGACGTGCTA: 1.91 z-score
GTAGGTTTCGGTTCCGGTTAGTGCTAG: 10.9 z-score
TTAGATCTCAGTTTCGATGAGTGCTAG: 2.37 z-score
TTAGTTTTCAGTTCCGATTAGTGCTAG: 4.63 z-score
CTACTTCTGTTTTTGCTTTCGTGCTAG: 2.17 z-score

Single results of other studies
PhoQ, residues 284 288 289 292 302 303 NLSRDF
fold induction (PhoP, residues 12 14 15 18 19 AQALL (Escherichia coli, UniProt P23836); Sort-seq, refers to: YFP reporter; E. coli; PhoQ-PhoP variant library, with: 10 µM Mg2+; relative to: high Mg2+ state, higher = stronger signaling): 17.8

Some of these lines once more (series 1):
GTGACCAC: 0.352
